Results of several laboratories.
Each line is one published result; not all experiments were run side by side. ± gives the spread as reported.
ache: Acetylcholinesterase (ache, Electrophorus electricus, UniProt O42275)
UniProt O42275, sequence (whole entry, looked up): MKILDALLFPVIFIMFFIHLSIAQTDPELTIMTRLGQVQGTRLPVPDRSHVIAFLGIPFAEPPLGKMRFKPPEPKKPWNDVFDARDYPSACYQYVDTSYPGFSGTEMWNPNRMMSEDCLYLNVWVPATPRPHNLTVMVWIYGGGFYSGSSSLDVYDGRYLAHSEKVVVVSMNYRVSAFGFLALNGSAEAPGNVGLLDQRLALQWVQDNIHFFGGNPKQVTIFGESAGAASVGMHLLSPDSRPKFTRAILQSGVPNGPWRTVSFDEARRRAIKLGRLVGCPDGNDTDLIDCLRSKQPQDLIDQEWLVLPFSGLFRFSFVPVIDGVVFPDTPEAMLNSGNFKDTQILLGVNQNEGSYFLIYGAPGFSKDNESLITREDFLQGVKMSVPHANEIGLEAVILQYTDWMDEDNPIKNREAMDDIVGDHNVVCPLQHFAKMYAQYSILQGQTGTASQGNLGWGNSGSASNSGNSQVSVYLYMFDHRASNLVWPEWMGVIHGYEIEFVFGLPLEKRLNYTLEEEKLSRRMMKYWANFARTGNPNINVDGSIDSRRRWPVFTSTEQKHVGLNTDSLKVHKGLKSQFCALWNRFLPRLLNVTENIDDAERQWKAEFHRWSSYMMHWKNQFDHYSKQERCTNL
UniProt O13828, sequence (whole entry, looked up): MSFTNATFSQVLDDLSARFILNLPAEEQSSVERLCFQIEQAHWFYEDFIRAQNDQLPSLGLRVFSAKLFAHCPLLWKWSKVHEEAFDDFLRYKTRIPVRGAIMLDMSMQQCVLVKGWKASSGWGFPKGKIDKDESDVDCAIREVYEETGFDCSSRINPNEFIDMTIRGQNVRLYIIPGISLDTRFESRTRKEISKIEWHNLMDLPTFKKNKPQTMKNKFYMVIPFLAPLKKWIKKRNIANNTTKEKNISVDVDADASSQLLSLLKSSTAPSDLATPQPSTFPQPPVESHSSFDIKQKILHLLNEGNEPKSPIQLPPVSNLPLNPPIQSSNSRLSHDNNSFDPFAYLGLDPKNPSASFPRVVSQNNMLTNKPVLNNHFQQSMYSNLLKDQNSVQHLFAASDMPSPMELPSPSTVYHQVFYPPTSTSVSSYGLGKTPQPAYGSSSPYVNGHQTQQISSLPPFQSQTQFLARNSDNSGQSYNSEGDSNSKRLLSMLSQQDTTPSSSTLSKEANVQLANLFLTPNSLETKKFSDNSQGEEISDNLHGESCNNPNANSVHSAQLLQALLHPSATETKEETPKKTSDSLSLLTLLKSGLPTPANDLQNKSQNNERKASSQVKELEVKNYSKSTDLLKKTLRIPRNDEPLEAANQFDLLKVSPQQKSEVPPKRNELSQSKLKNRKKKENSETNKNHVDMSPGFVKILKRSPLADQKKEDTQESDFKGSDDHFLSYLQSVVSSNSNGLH
UniProt P53779, sequence (whole entry, looked up): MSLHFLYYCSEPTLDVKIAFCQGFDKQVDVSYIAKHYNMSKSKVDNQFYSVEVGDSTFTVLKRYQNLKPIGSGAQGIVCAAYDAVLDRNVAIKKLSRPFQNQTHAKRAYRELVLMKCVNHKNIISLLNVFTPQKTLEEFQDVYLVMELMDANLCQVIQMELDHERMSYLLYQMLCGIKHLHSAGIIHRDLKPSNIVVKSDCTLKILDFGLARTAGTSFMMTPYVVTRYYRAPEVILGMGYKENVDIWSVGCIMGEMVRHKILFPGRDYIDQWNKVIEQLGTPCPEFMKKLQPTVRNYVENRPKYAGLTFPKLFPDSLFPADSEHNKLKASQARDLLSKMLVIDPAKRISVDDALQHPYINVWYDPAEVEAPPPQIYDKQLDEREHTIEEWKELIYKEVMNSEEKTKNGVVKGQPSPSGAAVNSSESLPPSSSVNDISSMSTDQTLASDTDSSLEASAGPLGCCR
UniProt P06241, sequence (whole entry, looked up): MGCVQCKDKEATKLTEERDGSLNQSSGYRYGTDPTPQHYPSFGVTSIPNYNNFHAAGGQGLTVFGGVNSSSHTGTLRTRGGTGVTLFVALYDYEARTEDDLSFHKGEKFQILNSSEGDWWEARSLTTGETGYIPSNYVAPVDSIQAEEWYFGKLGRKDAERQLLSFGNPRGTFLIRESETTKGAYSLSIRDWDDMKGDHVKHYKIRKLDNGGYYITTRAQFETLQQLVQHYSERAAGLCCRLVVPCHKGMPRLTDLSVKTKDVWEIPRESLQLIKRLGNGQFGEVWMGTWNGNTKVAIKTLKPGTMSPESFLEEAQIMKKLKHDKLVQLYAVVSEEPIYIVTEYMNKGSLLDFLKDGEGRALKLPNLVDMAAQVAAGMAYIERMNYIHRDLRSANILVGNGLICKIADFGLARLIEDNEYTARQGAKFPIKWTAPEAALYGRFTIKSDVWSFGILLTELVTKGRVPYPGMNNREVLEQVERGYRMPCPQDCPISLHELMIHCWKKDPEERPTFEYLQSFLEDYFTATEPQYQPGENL
UniProt Q9UBS5, sequence (whole entry, looked up): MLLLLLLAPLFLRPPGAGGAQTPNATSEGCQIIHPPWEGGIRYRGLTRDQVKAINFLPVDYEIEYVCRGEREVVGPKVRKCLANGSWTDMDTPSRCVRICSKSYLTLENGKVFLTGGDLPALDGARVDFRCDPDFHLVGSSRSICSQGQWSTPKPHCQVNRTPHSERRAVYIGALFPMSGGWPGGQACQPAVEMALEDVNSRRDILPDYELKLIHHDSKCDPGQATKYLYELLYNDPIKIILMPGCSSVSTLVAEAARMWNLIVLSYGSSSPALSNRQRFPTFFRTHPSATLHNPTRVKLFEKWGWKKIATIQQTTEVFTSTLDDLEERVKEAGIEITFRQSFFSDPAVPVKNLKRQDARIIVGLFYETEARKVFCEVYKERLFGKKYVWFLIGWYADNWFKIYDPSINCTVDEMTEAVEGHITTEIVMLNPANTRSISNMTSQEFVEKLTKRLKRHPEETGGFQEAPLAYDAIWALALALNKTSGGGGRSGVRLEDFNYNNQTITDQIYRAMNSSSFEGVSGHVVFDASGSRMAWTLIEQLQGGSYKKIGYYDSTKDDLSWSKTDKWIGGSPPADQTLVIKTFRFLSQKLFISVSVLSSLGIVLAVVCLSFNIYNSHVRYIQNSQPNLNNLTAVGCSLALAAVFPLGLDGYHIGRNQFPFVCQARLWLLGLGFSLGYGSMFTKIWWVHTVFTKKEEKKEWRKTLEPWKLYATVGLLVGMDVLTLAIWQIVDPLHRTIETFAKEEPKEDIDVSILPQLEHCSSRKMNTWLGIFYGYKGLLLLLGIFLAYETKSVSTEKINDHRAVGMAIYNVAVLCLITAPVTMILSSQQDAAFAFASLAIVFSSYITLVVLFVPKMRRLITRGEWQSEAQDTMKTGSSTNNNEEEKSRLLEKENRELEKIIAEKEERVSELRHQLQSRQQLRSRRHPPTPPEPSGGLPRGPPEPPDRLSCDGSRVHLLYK
UniProt Q8IW41, sequence (whole entry, looked up): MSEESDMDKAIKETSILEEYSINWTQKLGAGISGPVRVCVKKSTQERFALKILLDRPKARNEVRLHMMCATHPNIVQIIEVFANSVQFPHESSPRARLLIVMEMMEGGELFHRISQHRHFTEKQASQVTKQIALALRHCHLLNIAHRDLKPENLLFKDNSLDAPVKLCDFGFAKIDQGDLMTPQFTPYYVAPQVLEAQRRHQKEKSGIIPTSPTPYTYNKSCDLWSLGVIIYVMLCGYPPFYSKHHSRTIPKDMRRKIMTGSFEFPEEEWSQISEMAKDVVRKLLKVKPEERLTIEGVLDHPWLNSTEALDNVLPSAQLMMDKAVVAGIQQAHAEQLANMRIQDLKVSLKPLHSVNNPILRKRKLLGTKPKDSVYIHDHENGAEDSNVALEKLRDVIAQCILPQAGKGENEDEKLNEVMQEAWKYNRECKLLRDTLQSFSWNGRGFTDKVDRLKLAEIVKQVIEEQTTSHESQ

With `O=C(O)c1ccccc1/C=N/Nc1nc(-c2ccccc2Cl)cs1` the inhibition was -1.82% (Tyrosine-protein kinase Fyn (FYN, Homo sapiens, UniProt P06241); enzyme activity, inhibitor; 1 µM).
`CCc1nc2ccc(C(=O)NCCOc3ccc(OC)cc3)cn2c1N(C)Cc1ccc(OC)cc1` gave an inhibition of 72.2% (ache; enzyme activity, inhibitor, Ellman; 5 µM).
`Cc1ccc2c(n1)c(-c1cccc(S(C)(=O)=O)c1)c(C)n2C/C(F)=C/CN` has an inhibition of 0% (Gamma-aminobutyric acid type B receptor subunit 1 (GABBR1, Homo sapiens, UniProt Q9UBS5); off-target safety screen; 10 µM).
`COc1ccc(F)cc1S(=O)(=O)Nc1cnc2c(c1)C(=O)NCCO2` has an inhibition of 1% (protein kinase C (non-selective); enzyme activity; 10 µM).
`CC(C)[C@H]1NC(=O)C[C@H]2/C=C/CCSSC[C@@H](NC1=O)C(=O)N[C@H](Cc1cccc3ccccc13)C(=O)NCC(=O)O2` has an inhibition of -0.323% (5'-AMP-activated protein kinase catalytic subunit alpha-2, with beta1 gamma1 (PRKAA2, Homo sapiens, UniProt P54646); 10 µM).
`CC(=O)N[C@H]1[C@H]([C@H](O)[C@H](O)CO)O[C@@](O[C@H]2[C@@H](O)[C@@H](CO)O[C@@H](Oc3ccc([N+](=O)[O-])cc3)[C@@H]2O)(C(=O)O)C[C@@H]1N=[N+]=[N-]` has an inhibition of 0.6 ± 2.7% (Sialidase A (nanA, Streptococcus pneumoniae, UniProt P62575); 8 µM, pH 6).
`CC(C)N` gave an inhibition of 49.8% (ache; enzyme activity, inhibitor, Ellman; 20 µM).
For `CS(C)(=O)=Nc1ccc(-c2ccc(-c3nc4cc(O[C@@H]5CO[C@H]6[C@@H]5OC[C@H]6O)[nH]c4cc3F)cc2)cc1`, the inhibition was 6% (MAP kinase-activated protein kinase 5 (MAPKAPK5, Homo sapiens, UniProt Q8IW41); enzyme activity, inhibitor; 10 µM).
For `CN(C)[C@H]1C[C@@]23CC[C@@]4(O2)C(=CC[C@]2(C)[C@@H](c5ccc6ccncc6c5)CC[C@H]24)C=C3[C@@H](O)[C@@H]1O`, the inhibition was 2.4% (Mitogen-activated protein kinase 6 (MAPK6, Homo sapiens, UniProt Q16659); ATP probe labelling, inhibitor, KiNativ profiling; 1 µM).
`C=CC(=O)Nc1cc(-c2nn(C3CCC(N4CCN(C(C)=O)CC4)CC3)c3ncnc(N)c23)ccc1Oc1ccccc1` (stereo not drawn) gave an inhibition of 69.8% (Receptor tyrosine-protein kinase erbB-2 (ERBB2, Homo sapiens, UniProt P04626); inhibitor, KiNativ profiling; biochemical; 2 µM).
For `C[C@H](NCc1ccc(-c2ccc(C(F)(F)F)cc2)cc1)C(N)=O`, the inhibition was 14% (Mitogen-activated protein kinase 10 (MAPK10, Homo sapiens, UniProt P53779); cell-free assay, competition with immobilised ligand; 1 µM).
The inhibition of `C[n+]1cn([C@@H]2O[C@H](COP(=O)([S-])OP(=O)(O)OP(=O)(O)OP(=O)([S-])OC[C@H]3O[C@@H](n4c[n+](C)c5c(O)nc(N)nc54)[C@H](O)[C@@H]3O)[C@@H](O)[C@H]2O)c2nc(N)nc(O)c21` (stereo partly drawn) is reported as 66.2% (mRNA decapping complex subunit 2, with Dcp1 (dcp2, Schizosaccharomyces pombe, UniProt O13828); 200 µM, 0.25 h).
